# Experimental data of several laboratories.
# Compare with care: the assays were run in different laboratories. ± gives the spread as reported.
SMILES,tested on,assay,test system,setting,how to read,quantity,result
CC(=NN=c1[nH]c2cc(F)c(F)cc2n1C)c1ccc(F)cn1,MDA-MB-231,"viability, MTT",,72 h,,IC50,75 nM
CCOC(=O)C1=C(C)NC2=C(C(=O)CC(C)(C)C2)C1c1ccc(OCC(=O)NN=Cc2cccc(C=O)c2)cc1OCC(=O)NN=Cc1cccc(C=O)c1 (stereo not shown),Enterobacter aerogenes,,CCM 2531,"concentration not given, 24 h",,inhibition zone diameter,3.1 ± 0.6 mm
COc1cc([C@@H]2c3cc4c(cc3[C@@H](OC(C)C)[C@H]3COC(=O)[C@H]23)OCO4)cc(OC)c1OC,Leishmania,,mouse splenocytes,,relative to: CC50 over amastigote EC50,selectivity index,0.5
"C=CC(=O)N1CCC(c2cc(Nc3cc4n(n3)CCOC4)c3ncnn3c2)C1 (single isomer, unassigned)",TMD8,"calcium flux, FLIPR",,"4 h preincubation, together with: anti-IgM",,IC50,> 1000 nM
COC(=O)[C@@H]1C(c2nc3cncnc3[nH]2)=Cc2cc3c(cc2[C@H]1c1cc(OC)c(OC)c(OC)c1)OCO3,Leishmania infantum,Alamar Blue,HepG2,,relative to: CC50 HepG2 over EC50 amastigotes,selectivity index,2.1
CCOc1ccccc1Nc1nnc(SCC(=O)Nc2cc(F)ccc2F)s1,co-cultured human PBMCs,,MucilAir airway epithelium,"10 µM, 48 h, together with: anti-CD3/CD28",,IL-2 secretion,202 ± 11 pg/mL
COC(=O)[C@@H]1C(C=Nc2ccccc2)=Cc2cc3c(cc2[C@H]1c1cc(OC)c(OC)c(OC)c1)OCO3,Leishmania,,mouse splenocytes,,relative to: CC50 over amastigote EC50,selectivity index,> 5.1
CCC1NC(=O)C(CCCNC(=N)N)NC(=O)C(C)(NC(=O)C(C)C)CCCCNC(=O)C(c2ccccc2)NC1=O (stereo not shown),,"immunoblot, measured: H3K27me3, H3K36me3, H3K79me3","MLL-AF9 leukaemia cells, mouse","dose not given, four days",,histone methylation,no effect
Cc1ncsc1-c1ccc([C@H](C)NC(=O)[C@@H]2C[C@@H](O)CN2C(=O)[C@@H](NC(=O)CCCCCCC(=O)N2CCN(C[C@]3(C)CCC(c4ccc(Cl)cc4)=C(CN4CCN(c5ccc(C(=O)NS(=O)(=O)c6ccc(N[C@H](CCN7CCOCC7)CSc7ccccc7)c(S(=O)(=O)C(F)(F)F)c6)cc5)CC4)C3)CC2)C(C)(C)C)cc1,,,"naturally aged mice, liver","intraperitoneal, 5 mg/kg every 3 days",,SA-β-gal staining,decreased
C[C@@H]1CN(C2CCC2)CC[C@H](O[C@H]2[C@@H](O)C[C@H](O[C@H]3[C@@H](O)C[C@H](O[C@H]4CC[C@@]5(C)[C@H](CC[C@@H]6[C@@H]5C[C@@H](O)[C@]5(C)[C@@H](C7=CC(=O)OC7)CC[C@]65O)C4)O[C@@H]3C)O[C@@H]2C)O1,,,rat hippocampal slices,"1 µM, ~14 min, trace 2, together with: electrical stimulation",relative to: pre-drug control,K+ decay time constant,96 ± 6%

# For quick reference, copied from above:
SMILES,tested on,assay,test system,setting,how to read,quantity,result
"C=CC(=O)N1CCC(c2cc(Nc3cc4n(n3)CCOC4)c3ncnn3c2)C1 (single isomer, unassigned)",TMD8,"calcium flux, FLIPR",,"4 h preincubation, together with: anti-IgM",,IC50,> 1000 nM
